# Published values gathered from unrelated publications.
# Parts stem from different laboratories: compare values within a part only. Changes are numbered by the printed parent chain.

# Study 1
# Target: Interferon regulatory factor 5, full length, phosphomimetic (IRF5, Homo sapiens, UniProt Q13568-2, residues 1-514, S451D/S453D/S456D/S462D)
# Technique: protein-binding microarray
# Molecule type: double-stranded DNA, one strand shown
# Matrix: in vitro
# Tested at: 940 nM top
# Setting: 60-bp whole probe
# Added: salmon DNA 0.4 mg/ml
# Baseline: random background probes
# Reading: higher = stronger binding
# Constant ends, left off below: GCCTAGCAC … GTCTTGATTCGCTTGACGCTGCTG
Oligonucleotide,fitted relative affinity [z-score]
TTTGGTTTCTGGTTTATTGAGTGCTAG,6.09
TCAACTCTTCTTTTGCTACTGTGCTAG,1.38
TCAGTCATCTATAATGGAACTGTGCTA,0.0936
GCCCCACCCACTCTGGCCCCGTGCTAG,0.301
TTAGATATCAGTTTTGATTAGTGCTAG,0.542
TCAAGAATGGGGTTTGCAACTGTGCTA,-0.184
GACGGACTGCTACTACTGACGTGCTAG,-0.419
TCACCTTACTTTATGTAACTGTGCTAG,0.0825

# Study 2
# Target: Histone acetyltransferase KAT6A, winged helix 1, GST fusion (KAT6A, Homo sapiens, UniProt Q92794, residues 1-85)
# Technique: protein binding microarray
# Molecule type: double-stranded DNA, one strand shown
# Matrix: in vitro
# Tested at: not given
# Setting: 8-mer, flanks averaged, mean of 2 arrays, mostly near background
# Baseline: not given
# Reading: higher = stronger binding
# Construct (chain): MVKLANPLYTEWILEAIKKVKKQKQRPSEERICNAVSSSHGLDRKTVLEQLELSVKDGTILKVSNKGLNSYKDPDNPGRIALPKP
Oligonucleotide,E-score
AGGTCCGG,0.0781
ATCGCACC,0.0549
ACGTCGGA,0.0446
AATATGGT,-0.146
ACGGGGCA,0.286
GTTAGCTA,-0.101
CGAGATAC,0.0092
GAGACGAC,-0.0492
AGGCGCCG,0.401
AAACTGGC,-0.161
ACTCGAGA,-0.0777
TGGTCACA,-0.0469
ACCTGGCA,-0.167
GATATGGC,0.208
CGGAGAGA,0.101
GAGGGGCC,-0.0508
AAAATTCA,-0.229

# Study 3
# Target: Sal-like protein 4, full length isoform A (SALL4, Homo sapiens, UniProt Q9UJQ4, residues 1-1053)
# Chain of UniProt Q9UJQ4 (whole entry, looked up): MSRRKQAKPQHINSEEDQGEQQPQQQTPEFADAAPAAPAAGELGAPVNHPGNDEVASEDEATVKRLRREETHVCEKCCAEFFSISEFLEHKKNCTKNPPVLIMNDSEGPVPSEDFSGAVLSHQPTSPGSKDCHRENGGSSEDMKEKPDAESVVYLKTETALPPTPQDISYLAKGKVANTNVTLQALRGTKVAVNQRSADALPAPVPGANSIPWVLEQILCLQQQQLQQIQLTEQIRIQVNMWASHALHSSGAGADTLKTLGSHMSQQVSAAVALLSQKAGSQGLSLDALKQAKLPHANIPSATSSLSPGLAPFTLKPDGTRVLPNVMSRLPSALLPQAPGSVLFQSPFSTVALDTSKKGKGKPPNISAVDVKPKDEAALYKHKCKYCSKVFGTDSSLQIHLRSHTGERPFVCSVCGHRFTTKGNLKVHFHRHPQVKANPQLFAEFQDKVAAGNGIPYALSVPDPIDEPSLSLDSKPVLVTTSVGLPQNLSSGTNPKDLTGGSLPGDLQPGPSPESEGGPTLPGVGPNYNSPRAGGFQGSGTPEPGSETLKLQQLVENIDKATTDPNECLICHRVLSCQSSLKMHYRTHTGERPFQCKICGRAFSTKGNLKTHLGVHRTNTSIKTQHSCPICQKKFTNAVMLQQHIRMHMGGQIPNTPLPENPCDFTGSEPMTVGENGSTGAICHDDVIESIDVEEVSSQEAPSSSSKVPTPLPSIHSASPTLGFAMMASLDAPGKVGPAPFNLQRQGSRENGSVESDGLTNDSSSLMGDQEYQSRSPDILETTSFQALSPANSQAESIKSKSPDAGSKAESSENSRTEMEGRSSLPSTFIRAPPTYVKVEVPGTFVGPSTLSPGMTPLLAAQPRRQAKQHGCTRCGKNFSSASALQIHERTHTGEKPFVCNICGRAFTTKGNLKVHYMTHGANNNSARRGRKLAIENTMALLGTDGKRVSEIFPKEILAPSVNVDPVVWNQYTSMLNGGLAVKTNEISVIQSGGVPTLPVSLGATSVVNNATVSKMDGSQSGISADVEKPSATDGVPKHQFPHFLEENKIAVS
# Technique: universal PBM
# Molecule type: double-stranded DNA, one strand shown
# Matrix: in vitro
# Tested at: 600 nM
# Setting: 8-mer, flanks averaged, mean of replicates
# Reading: higher = stronger binding
Oligonucleotide,E-score
AGTCGGTA,-0.093
GCGCGGTA,-0.221
AAGAATGT,0.202
ACTTTAGG,0.0836
TCTGACAA,0.183
AATTAAGG,0.177
CCAACATC,-0.19
CAGTCCAG,-0.354
CAACGGGC,-0.162
CTGTTTTC,0.137
CATATTCG,0.256
GCAGGTAC,-0.255

# Study 4
# Target: ABI1, truncated, D143A, DHFR fusion (Arabidopsis thaliana)
# Technique: DHFR PCA, deep sequencing
# Matrix: yeast
# Setting: methotrexate growth selection, single substitutions
# Added: (+)-ABA 1.4 µM
# Baseline: wild-type fitted maximum
# Reading: higher = stronger binding
# Parent: PYL1, truncated, DHFR fusion (Arabidopsis thaliana); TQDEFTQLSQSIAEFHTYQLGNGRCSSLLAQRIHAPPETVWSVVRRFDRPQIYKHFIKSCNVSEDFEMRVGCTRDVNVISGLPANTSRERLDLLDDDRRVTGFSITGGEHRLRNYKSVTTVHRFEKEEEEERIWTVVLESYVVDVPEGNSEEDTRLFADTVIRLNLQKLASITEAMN
Substitution,relative binding score [%]
V62P,1.36
N61T,75.3
L29E,-2.79
L94I,40.6
V100S,1
N61M,52.7
I52A,60
L164T,81.1
H16G,-0.672
E14T,22.1
T106W,24.9
S26T,54.1

# Study 5
# Target: RNA binding protein fox-1 homolog 2, RRM domain, GST-SBP tag (RBFOX2, Homo sapiens, UniProt O43251-10, residues 100-194)
# Technique: RNA Bind-n-Seq
# Molecule type: RNA
# Matrix: in vitro
# Tested at: 365 nM
# Setting: natural RNA segment, single round, ends assumed
# Baseline: no-protein control
# Reading: higher = stronger binding
# Constant ends, left off below: GGGAGUUCUACAGUCCGACGAUC … UGGAAUUCUCGGGUGCCAA
# Target sequence (chain): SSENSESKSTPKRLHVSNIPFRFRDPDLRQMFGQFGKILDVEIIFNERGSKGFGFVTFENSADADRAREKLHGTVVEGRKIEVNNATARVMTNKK
Oligonucleotide,RBNS enrichment (R)
AUGGAUAGACUCUAUUUCCUUCCAUAUCUGUUCCUCUGUUCCUUUUCCCACUUUCUGGGUGGCUUUUUGGGUCCACCCAGCCAGGAUGCUGCAGGCCAAGCUGGGUGUGG,0.312
UAUUUUUUUAUUCUAUGUGCACACAUACAGUAUACAUAUAUAUUUAUAUCACAUUUUACUGAACCAAAAAGUUGGGUUUCCAAUAAAAUACUUGUUUUUUAAUAACCGAC,0.462
CUUUUCUAAAAGUGGUAUCUGUUAUCCACAAUGUAUUUUAGUUAUUCCCACAAGUCAGGGGUCCAGAUAAAAUGAGGGUUAUCAGCUAACUGAUAUGCUAUCAUUGAGGU,0.286
AUCCACUGAGCCUUCAGCAGAAAUUCCUUUUCUAGACAUUAAAACCACUUAACAUCCGUACUGUUUGUUAUAUAUUUCUCCCGACCCUACUCCCCACUCCUGCCACCAAG,0.834
UAUAUAAAGACUGGCACCCUGCCUCUCUGUGCCCAGGCCCAGCCCUGGUGACAUGGCACCACUCAGCAGUGCUGUCACUGUAAGCAUGGACUCCCAGGAGACAGUGUGGG,0.685
ACUGCAUUCUUUGGACGUGUGAAUCCAUGUUCCUCUUCCUCUGGCCACUGAACACCUCCACCAGCUCUUUGGGAAUUGGAUGGAAAGGCGGCCCCUGGGGGCCAGGGGUG,0.294
AUUUUCUUUCUGAUUUCUUUUACUCUGCAUACAUUUUAUAAGUUCAAGGUCAGCUGUCAAAAGGAUAAGCUGUGGGGUUAGAACAUAUUACAUUGCAACAUCCUAAAUUG,0.824
UCUGGACCUAAUUGGGCAUUGGGCUUUAGUGAGACCACAGACCAGGCCCGUCUCUCCUGUAGGCUUUUAAUUCAAUGGCAACUCUAUUUCAAAGAAUAAAAGCCUUUGGA,0.328
UGCUUUCAAACAUAGAUAAAGCAUGAUAAAGAUUAUUAUUUAAGAUAUACUUGUAUUUAUACCUCAGAUAUUCUUUUGGGUUUUGUACCUCAAGGCUUUUUUCUUCUUAU,0.604
AAGCCCUUUUGGUAAAAACCAACAGGUUGUGGCCGCAGACCUCAGAUGGACCCGGCCCAUCCCUGGGGACGUGCUGGCGUGGCAGGUCCAGAGAGCUGCACCCUGCACGG,0.316
AAAUGACAAACCCAGCCCUUCCCAGUAUACUUGAAAAGCUUUCUUGUUAAAAUAAAAGGUGUCACUGUGGUAGGCAUUUGGCAUAUUUUGUGGACUCAGUCAAGCAACCA,0.326
ACAUUAUACAGUAUCCUUUUCAGUCCUGCCAUAGAGAGGAACUAGAAUUCAGAUCUCAAUAUUAGGGAGAGUUCUCCUUUGAGCAACUCCUUUGCUUUCACACAGCAUAG,0.727

# Study 6
# Target: Centromere-binding protein 1, full length, N-terminal tag (CBF1, Saccharomyces cerevisiae, UniProt P17106, residues 1-351)
# Chain of UniProt P17106 (whole entry, looked up): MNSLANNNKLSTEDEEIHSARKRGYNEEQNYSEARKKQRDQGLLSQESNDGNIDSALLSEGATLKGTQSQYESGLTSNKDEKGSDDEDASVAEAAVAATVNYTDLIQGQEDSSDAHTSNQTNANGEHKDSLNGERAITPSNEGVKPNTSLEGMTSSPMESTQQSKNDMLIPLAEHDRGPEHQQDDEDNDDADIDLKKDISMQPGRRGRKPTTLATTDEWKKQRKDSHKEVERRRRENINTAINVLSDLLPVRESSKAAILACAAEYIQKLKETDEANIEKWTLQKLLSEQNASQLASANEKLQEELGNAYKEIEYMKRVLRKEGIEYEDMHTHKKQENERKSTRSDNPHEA
# Technique: protein-binding microarray
# Molecule type: double-stranded DNA, one strand shown
# Matrix: in vitro
# Tested at: 0.8 µM
# Setting: whole 60-bp probe, no competitor
# Reading: higher = stronger binding
# Constant ends, left off below: … GTCTTGATTCGCTTGACGCTGCTG
Oligonucleotide,fluorescence intensity [a.u.]
CCTAACTACTATAATCTGATGGTATAGCTTCGTACA,497
CTAGTTTCATCTGGAAAAGATGGAGACTGAAAATTC,543
CTATAAAGAAGAAAACATCAGCCTCACAATTACTTC,498
CTATGCTGTTTCCATCACGTGCATGTCACGTTTTTC,12500
CTAGCTTATGTAAATGGCGTGTCTGCGTAAACTTTC,527
CTACGAATAGGTCTTCATGTGCGCCTGAATCAGTTC,578
GAACTTCAACACTCTCACGAGTTTAATTCAAATTAG,567
GAATCTAATAGGAGTCACGTGGTTCCATCGTTTTAG,20200
CTAAGAATAATAGGGCACGGTACGTTCATTCCATTC,563
CTACGCAACGAAGGGGAGGTGACCGTGCTTGAATTC,532
CTATGGCTCAGTAATCACGAATAAAAGTAGGTGTTC,571
CTAACAGCATATAATCTGATGACTGAGAGGTCTTTC,520
GAAAAAGGAGCATAGAACGTGGGGCAATTTACATAG,552

# Study 7
# Target: CCNB3, cyclin fold, Cln2 fusion (human)
# Technique: yeast growth competition, sequencing
# Matrix: yeast
# Setting: weak parent motif
# Baseline: not given
# Reading: higher = stronger binding
# Parent: WEE1 docking peptide (human); HKTFRKLRLFDTP
Substitution,normalised enrichment score
HKGFRKLRLFDTP [T3G],0.594
HKTFRKLRLFDTQ [P13Q],-0.141
HKAFRKLRLFDTP [T3A],-0.193
HKTFRKLQLFDTP [R8Q],0.568
HLTFRKLRLFDTP [K2L],0.436
HKTFRKLRLMDTP [F10M],-0.0609
HKTFRKLMLFDTP [R8M],0.328
HKTFRKLNLFDTP [R8N],0.0521
HKTIRKLRLFDTP [F4I],0.231
CKTFRKLRLFDTP [H1C],0.0966
HKTPRKLRLFDTP [F4P],-0.0211
HKTFWKLRLFDTP [R5W],0.201
HKTFRKLRLFHTP [D11H],-0.415
HKTFRKLRLFDSP [T12S],0.169
HSTFRKLRLFDTP [K2S],0.0441
HKTWRKLRLFDTP [F4W],0.694
HKTVRKLRLFDTP [F4V],0.29
HKTFRKLFLFDTP [R8F],-0.164

# Excerpt of the above (study 6):
Oligonucleotide,fluorescence intensity [a.u.]
CTACGAATAGGTCTTCATGTGCGCCTGAATCAGTTC,578
CTAACAGCATATAATCTGATGACTGAGAGGTCTTTC,520
CCTAACTACTATAATCTGATGGTATAGCTTCGTACA,497
CTATGGCTCAGTAATCACGAATAAAAGTAGGTGTTC,571
CTATAAAGAAGAAAACATCAGCCTCACAATTACTTC,498
CTAGCTTATGTAAATGGCGTGTCTGCGTAAACTTTC,527
CTATGCTGTTTCCATCACGTGCATGTCACGTTTTTC,12500
CTAGTTTCATCTGGAAAAGATGGAGACTGAAAATTC,543
GAAAAAGGAGCATAGAACGTGGGGCAATTTACATAG,552
CTAAGAATAATAGGGCACGGTACGTTCATTCCATTC,563
GAACTTCAACACTCTCACGAGTTTAATTCAAATTAG,567
